Measurements of several laboratories.
A part holds a random share of what one study measured. Positions count from the first letter of the parent shown.

Sample 1
Target: OGT, full length, His-tagged (human)
Technique: phage display, sequencing
Sample: in vitro
Concentration: 1 µg OGT
Setting: single substitutions, 15-mer displayed peptide, unchanged parent 6.14
Reference: input library
Reading: higher = stronger binding
Endpoint: fold enrichment
Starting sequence: peptide; VAYPNSYMPKYQIST
Variant = VNYPNSYMPKYQIST [A2N]; result = 6.11 fold
Variant = VAYPTSYMPKYQIST [N5T]; result = 8.16 fold
Variant = VAYPMSYMPKYQIST [N5M]; result = 8.97 fold
Variant = VAYPNSDMPKYQIST [Y7D]; result = 0.592 fold
Variant = VAYPNSYWPKYQIST [M8W]; result = 2.77 fold
Variant = VAPPNSYMPKYQIST [Y3P]; result = 7.3 fold
Variant = VAYPNSYMPKYQYST [I13Y]; result = 0.795 fold
Variant = VAYPNSYMPKYQSST [I13S]; result = 0.559 fold

Sample 2
Target: CEP164, C-terminal peptide (human)
Technique: DHFR complementation, deep sequencing
Sample: yeast
Setting: single substitutions, model-inferred values
Reference: wild type
Reading: higher = weaker binding
Endpoint: binding free energy change
Starting sequence: PDZK1, PDZ domain 2 (human); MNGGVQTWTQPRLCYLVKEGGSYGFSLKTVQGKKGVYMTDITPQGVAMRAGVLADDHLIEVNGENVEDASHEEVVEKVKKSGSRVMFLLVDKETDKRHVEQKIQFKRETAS; partner HNRVKVYRF
Variant = V52W; result = 0.338 kcal/mol
Variant = R84S; result = 0.00634 kcal/mol
Variant = M38T; result = 0.421 kcal/mol
Variant = E19A; result = 0.151 kcal/mol
Variant = K96E; result = -0.0695 kcal/mol
Variant = D68V; result = 0.235 kcal/mol
Variant = K106N; result = -0.0927 kcal/mol
Variant = V61R; result = 1.44 kcal/mol

Mixed results
P1: viral docking peptide; TSVRRALFTGGSD; partner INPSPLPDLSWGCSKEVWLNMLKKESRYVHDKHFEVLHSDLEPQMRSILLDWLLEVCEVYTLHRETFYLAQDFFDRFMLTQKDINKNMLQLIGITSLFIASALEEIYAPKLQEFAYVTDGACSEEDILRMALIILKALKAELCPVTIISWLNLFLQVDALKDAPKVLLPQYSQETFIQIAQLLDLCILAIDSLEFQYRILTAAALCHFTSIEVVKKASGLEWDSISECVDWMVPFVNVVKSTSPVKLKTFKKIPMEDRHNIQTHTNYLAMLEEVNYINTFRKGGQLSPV
Molecule = RRP8 (Homo sapiens, UniProt O43159); tested on = HNRNPA1 (Homo sapiens, UniProt P09651); test = cross-linking MS; test system = cell fractions; conditions = together with: DSSO; endpoint = cross-linked residues; result = S80 to K350
Molecule = P1 R5N; tested on = CCNE2, cyclin fold, Cln2 fusion (human); test = yeast growth competition, sequencing; test system = yeast; conditions = strong parent motif; scale = reference: not given, higher = stronger binding; endpoint = normalised enrichment score; result = -0.103
Molecule = SF3B3 (Homo sapiens, UniProt Q15393); tested on = PHF5A (Homo sapiens, UniProt Q7RTV0); test = cross-linking MS; conditions = hits only; endpoint = interaction screen; result = cross-linked
Molecule = NUP62 (Homo sapiens, UniProt P37198); tested on = NUP188 (Homo sapiens, UniProt Q5SRE5); test = cross-linking MS; test system = cell fractions; conditions = together with: DSSO; endpoint = cross-linked residues; result = S418 to K109
Molecule = TIMM8B (Homo sapiens, UniProt Q9Y5J9); tested on = TIMM13 (Homo sapiens, UniProt Q9Y5L4); test = cross-linking MS; test system = cell fractions; conditions = together with: DSSO; endpoint = cross-linked residues; result = K43 to K64

A few entries again (sample 2):
Variant = E19A; result = 0.151 kcal/mol
Variant = V52W; result = 0.338 kcal/mol
